Values quoted from earlier work, collected from citations in different studies.
Numbered parts are unrelated; values within a part may stem from several laboratories. pEC50, pIC50, pKd, pKi: −log10 of the molar value.

Series 1
Organism: Cryptosporidium parvum
Technique: high-throughput screen
Tested at: concentration not given
Quantity: activity
CCOC(=O)C1=C(COCCN)NC(C)=C(C(=O)OC)C1c1ccccc1Cl (centres unmarked): inactive
C/C=C1\[C@H]2C=C(C)C[C@]1(N)c1ccc(=O)[nH]c1C2: inactive
CCCCC(=O)N(Cc1ccc(-c2ccccc2-c2nnn[nH]2)cc1)[C@H](C(=O)O)C(C)C: inactive
O=C1CN(/N=C/c2ccc(-c3ccc([N+](=O)[O-])cc3)o2)C(O)=N1: inactive
Nc1ncn([C@@H]2O[C@H](CO)[C@@H](O)[C@H]2O)c(=O)n1: inactive
Nc1nc(Cl)nc2c1ncn2[C@H]1C[C@H](O)[C@@H](CO)O1: inactive
CC(C)(C)NC(=O)[C@@H]1CN(Cc2cccnc2)CCN1C[C@@H](O)C[C@@H](Cc1ccccc1)C(=O)N[C@H]1c2ccccc2C[C@H]1O: inactive
CC(C)/N=c1\cc2n(-c3ccc(Cl)cc3)c3ccccc3nc-2cc1Nc1ccc(Cl)cc1: inactive
Nc1nc2c(ncn2CCC(CO)CO)c(=O)[nH]1: inactive
CCOc1cc(N)c(Cl)cc1C(=O)NCC1CN(Cc2ccc(F)cc2)CCO1 (centres unmarked): inactive
Cc1nnc(SCC2=C(C(=O)O)N3C(=O)[C@@H](NC(=O)Cn4cnnn4)[C@H]3SC2)s1: inactive
Cc1ccc(C)c(OCCCC(C)(C)C(=O)O)c1: inactive
Cc1cccc(Nc2ccccc2C(=O)O)c1C: inactive
CSc1ccc2c(c1)N(CCC1CCCCN1C)c1ccccc1S2 (centres unmarked): inactive
Cc1c2oc3c(C)ccc(C(=O)N[C@@H]4C(=O)N[C@H](C(C)C)C(=O)N5CCC[C@H]5C(=O)N(C)CC(=O)N(C)[C@@H](C(C)C)C(=O)O[C@@H]4C)c3nc-2c(C(=O)N[C@@H]2C(=O)N[C@H](C(C)C)C(=O)N3CCC[C@H]3C(=O)N(C)CC(=O)N(C)[C@@H](C(C)C)C(=O)O[C@@H]2C)c(N)c1=O: inactive
NC(=O)c1cnccn1: inactive
COc1cc(C(=O)NS(=O)(=O)c2ccccc2C)ccc1Cc1cn(C)c2ccc(NC(=O)OC3CCCC3)cc12: inactive
Oc1ncnc2[nH]ncc12: inactive
CO[C@H]1/C=C/O[C@@]2(C)Oc3c(C)c(O)c4c(O)c(c(/C=N/N5CCN(C6CCCC6)CC5)c(O)c4c3C2=O)NC(=O)/C(C)=C\C=C\[C@H](C)[C@H](O)[C@@H](C)[C@@H](O)[C@@H](C)[C@H](OC(C)=O)[C@@H]1C: inactive
Cc1onc(-c2ccccc2)c1C(=O)N[C@@H]1C(=O)N2[C@@H]1SC(C)(C)[C@@H]2C(=O)O: inactive
COc1ccc(OC)c(C(O)CNC(=O)CN)c1 (centres unmarked): inactive
C=CC[C@@H]1/C=C(\C)C[C@H](C)C[C@H](OC)[C@H]2O[C@@](O)(C(=O)C(=O)N3CCCC[C@H]3C(=O)O[C@H](/C(C)=C/[C@@H]3CC[C@@H](O)[C@H](OC)C3)[C@H](C)[C@@H](O)CC1=O)[C@H](C)C[C@@H]2OC: inactive

Other studies, line by line
Cc1ccc2nc(CNCCCOc3ccccc3)cc(O)c2c1
pEC50 (DRD4 (human); biochemical): 8.38

CN(C)c1cc(CNCC(C)(C)C)c(O)c2c1C[C@H]1C[C@H]3[C@H](N(C)C)C(O)=C(C(N)=O)C(=O)[C@@]3(O)C(O)=C1C2=O
decrease in concentration (aqueous solution; concentration not given, 24 h, -32): ~50%

C=CC(=O)N1CCC(CNc2ncnc(N)c2-c2ccc(Oc3ccccc3)cc2)CC1
AUC(0-last) (human; 75 mg once daily): 325 ng·h/mL

[Zn]
concentration of peak potentiation (glycine receptor; positive modulator): ~1 µM

O=C(Nc1ccc(OC(F)(F)Cl)cc1)c1cnc(N2CC[C@@H](O)C2)c(-c2ccn[nH]2)c1
Tmax (healthy male humans; oral, dose not given): 2 h

CC1CS(=O)(=O)CCN1/N=C/c1ccc([N+](=O)[O-])o1 (centres unmarked)
pIC50 (Trypanosoma cruzi; L6E9 rat myoblasts, amastigote): 5.55

CN(C)C(=O)c1sc2nc(N3CCC(S(C)(=O)=O)CC3)cc(C(F)(F)F)c2c1N
pIC50 (IKBKB; biochemical activity): < 5.00

Oc1ccc(C=Cc2cc(O)cc(O)c2)cc1
pKd (unknown plasma membrane protein): 6.66

Oc1ccc(/C=C/c2cc(O)cc(O)c2)cc1
pIC50 (α-amylase (porcine pancreas); enzyme activity, inhibitor; together with: starch): 4.80

C[C@H]1CO[C@@H]2Cn3cc(C(=O)NCc4ccc(F)cc4F)c(=O)c(O)c3C(=O)N12
Tmax (human; oral tablet, median fed): 4 h

CC(C)CCN[C@@H]1CCc2cc(O)c(N3CC(=O)NS3(=O)=O)c(F)c2C1
pIC50 (PTPN2; enzyme activity, inhibitor, in vitro): 8.60

N#CSCCOc1ccc(Oc2ccccc2)cc1
pIC50 (Trypanosoma cruzi; parasite growth; rat L6E9 myoblasts, amastigote): 4.92

Nn1cnc2scc(-c3ccc(Cc4ccccc4)cc3)c2c1=O
pIC50 (β-arrestin 2): 4.81

CC(C)(/C=C(\C#N)C(=O)N1CCC[C@@H](n2nc(-c3ccc(Oc4ccccc4)cc3F)c3c(N)ncnc32)C1)N1CCN(C2COC2)CC1
volume of distribution (human; 600 mg once daily): 4760 L

CC(C)C[C@H](NC(=O)[C@H](CCc1ccccc1)NC(=O)CN1CCOCC1)C(=O)N[C@@H](Cc1ccccc1)C(=O)N[C@@H](CC(C)C)C(=O)[C@@]1(C)CO1
patients with cardiovascular effects (human patients; dose not given): ≤ 30%

CCN(Cc1cccc(S(=O)(=O)[O-])c1)c1ccc(C(=C2C=CC(=[N+](CC)Cc3cccc(S(=O)(=O)[O-])c3)C=C2)c2ccccc2S(=O)(=O)[O-])cc1.[Na+].[Na+]
λmax (UV-vis absorption): 630 nm

C[C@H](NC(=O)c1cnc2n1[C@](C)(Cc1ccc(C#N)cc1)C(=O)N2c1cc(Cl)c(F)c(Cl)c1)C(=O)NC1(c2ccccn2)CC1
pKd (ITGAL; biochemical): 8.05

O=c1oc2c(cc1O)oc(=O)c1cc(O)c(O)c(O)c12
pKi (LDHA (Homo sapiens, UniProt P00338); enzyme activity, inhibitor; together with: pyruvate competition): 5.26

C[C@]1(c2nc3c(C(N)=O)cccc3[nH]2)CCCN1
logP: 0.18

CC(=O)N1CCC[C@H]1C(=O)N[C@@H](CCC(N)=O)C(=O)N1CCC[C@H]1C(=O)N[C@H](C(=O)N[C@@H](CC(=O)O)C(=O)N[C@@H](CO)C(=O)N[C@@H](Cc1c[nH]c2ccccc12)C(=O)N[C@H](C(=O)O)C(C)C)C(C)C
pKd (affinity clamp fusion protein; binding): 6.85

Cc1ccc(-c2cnc([C@@]3(O)CC[C@H](C(=O)O)C(C)(C)C3)s2)cc1Nc1cccc(C(F)(F)F)n1
pIC50 (SYK (human); enzyme activity): 5.33

O=NN(CCCl)C(=O)NC1CCCCC1
median overall survival (patients, recurrent glioblastoma; dose not given, monotherapy): 5.6 months

For quick reference, copied from above (other studies, line by line):
CC(=O)N1CCC[C@H]1C(=O)N[C@@H](CCC(N)=O)C(=O)N1CCC[C@H]1C(=O)N[C@H](C(=O)N[C@@H](CC(=O)O)C(=O)N[C@@H](CO)C(=O)N[C@@H](Cc1c[nH]c2ccccc12)C(=O)N[C@H](C(=O)O)C(C)C)C(C)C
pKd (affinity clamp fusion protein; binding): 6.85

CN(C)C(=O)c1sc2nc(N3CCC(S(C)(=O)=O)CC3)cc(C(F)(F)F)c2c1N
pIC50 (IKBKB; biochemical activity): < 5.00

C[C@H]1CO[C@@H]2Cn3cc(C(=O)NCc4ccc(F)cc4F)c(=O)c(O)c3C(=O)N12
Tmax (human; oral tablet, median fed): 4 h

Cc1ccc(-c2cnc([C@@]3(O)CC[C@H](C(=O)O)C(C)(C)C3)s2)cc1Nc1cccc(C(F)(F)F)n1
pIC50 (SYK (human); enzyme activity): 5.33

CCN(Cc1cccc(S(=O)(=O)[O-])c1)c1ccc(C(=C2C=CC(=[N+](CC)Cc3cccc(S(=O)(=O)[O-])c3)C=C2)c2ccccc2S(=O)(=O)[O-])cc1.[Na+].[Na+]
λmax (UV-vis absorption): 630 nm

Nn1cnc2scc(-c3ccc(Cc4ccccc4)cc3)c2c1=O
pIC50 (β-arrestin 2): 4.81

CC(C)(/C=C(\C#N)C(=O)N1CCC[C@@H](n2nc(-c3ccc(Oc4ccccc4)cc3F)c3c(N)ncnc32)C1)N1CCN(C2COC2)CC1
volume of distribution (human; 600 mg once daily): 4760 L
